Experimental data from different studies.
Parts stem from different laboratories: compare values within a part only. Substitutions count along the parent as printed.

Block 1
Target: Histone acetyltransferase KAT6A, winged helix 1, GST fusion (KAT6A, Homo sapiens, UniProt Q92794, residues 1-85)
Method: protein binding microarray
Molecule type: double-stranded DNA, one strand shown
Medium: in vitro
Tested at: not given
Notes: 8-mer, flanks averaged, mean of 2 arrays, mostly near background
Reference: not given
Reading: higher = stronger binding
Target sequence (chain): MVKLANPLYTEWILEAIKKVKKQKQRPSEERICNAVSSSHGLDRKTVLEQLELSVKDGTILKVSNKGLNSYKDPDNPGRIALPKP
Strand | E-score
AGCTCAAA | -0.127
AGGGCAGC | -0.106
CCATGTTC | -0.0851
CCGTATCA | 0.253
ACCGAGCT | -0.00781
GGAAATAA | -0.131
ACCATAAC | -0.0254
GGGGGAAA | 0.0185
CCAGTGTA | -0.0983
CTATAATC | -0.116
CCCTAGCG | 0.049
ACACTACT | -0.172
AGCGCAGA | 0.209
ACTTCGAG | -0.166
TCCTCACA | -0.168
ATGTTCGG | -0.0117
GCTGCACA | 0.0863
ATAGATCC | 0.0119
GAACCAAA | -0.171
AAAAACCG | 0.0979
AACGCTTA | 0.0394
CTTTAGGA | -0.179
ATATATGC | -0.112
AGGCATCA | -0.237

Block 2
Target: Interferon regulatory factor 3, full length, phosphomimetic (IRF3, Homo sapiens, UniProt Q14653, residues 1-427, S386D/S396D/S398D/S402D/T404D/S405D)
Method: protein-binding microarray
Molecule type: double-stranded DNA, one strand shown
Medium: in vitro
Tested at: 2540 nM top
Notes: 60-bp whole probe
Together with: salmon DNA 0.4 mg/ml
Reference: random background probes
Reading: higher = stronger binding
All sequences stand within: GCCTAGCAC … GTCTTGATTCGCTTGACGCTGCTG
Construct (chain): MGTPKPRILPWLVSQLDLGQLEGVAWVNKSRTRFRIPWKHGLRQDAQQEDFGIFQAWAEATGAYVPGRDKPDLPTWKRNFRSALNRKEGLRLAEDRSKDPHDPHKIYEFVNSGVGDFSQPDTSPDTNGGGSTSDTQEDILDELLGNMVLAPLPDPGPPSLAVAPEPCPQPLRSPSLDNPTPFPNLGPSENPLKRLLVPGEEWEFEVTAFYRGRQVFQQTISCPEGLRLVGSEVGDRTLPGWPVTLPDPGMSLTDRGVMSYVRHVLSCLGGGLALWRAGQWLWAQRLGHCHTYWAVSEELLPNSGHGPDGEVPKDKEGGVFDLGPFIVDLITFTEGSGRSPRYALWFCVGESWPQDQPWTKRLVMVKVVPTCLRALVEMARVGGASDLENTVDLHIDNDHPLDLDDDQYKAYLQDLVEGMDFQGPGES
Strand | fitted relative affinity [z-score]
GACGAACTGAGTCTCGAGAAGTGCTAG | -0.349
GACGGTTTCGACTTTCGGGTCGTGCTA | 4.46
CTTAGCTTGGGTCTGTGCCTGTGCTAG | -0.678
GACGGTTTCGGGACTAGGGACGTGCTA | 4.77
TTAGAACTGGGGTTTCGATAAGTGCTA | 0.81
TTAGATATCCTACTGCTTTAGTGCTAG | 0.798
TTAGAACCGGGGTATCGATTAGTGCTA | -0.182
TTAGGAATCGACTATCGGTTAGTGCTA | -0.09
TCAGGTCTCGCTATGTTACTGTGCTAG | 0.448
AGGGTCTTCAGGTTCTCCCCGTGCTAG | -0.843
AGTTTTTACTTTCTGAATGCGTGCTAG | 4.12
GGTTTTCTCTATTGCTTTCTGTGCTAG | 2.04
TTAGGTATAGGGACTGGGTTAGTGCTA | -0.804
GGGTGGGAGCCGAAGACGCCGTGCTAG | -0.834
GAAGCCAGCTCTTTCGTTACGTGCTAG | 0.199
GACGGGCTGGGTTTCGGGACGTGCTAG | 0.713
CACGGTTCCGGTTTCGGGACGTGCTAG | 5.75
GACTGTATCGGTTTCGGGACGTGCTAG | 7.27
TTAGGTGTCGGGACTGGGTTAGTGCTA | 0.536
GACGATTTCAGTTTCGAGGCGTGCTAG | 4.31
TTAGGTTTCATACTGCTTTAGTGCTAG | 3.07
TCAGGTTTCTATATTTGACTGTGCTAG | 2.49
GACGATAGCGGGTTTCGAGACGTGCTA | 0.47
CACTGCATCTGATTTCTCAAAGTGCTA | 0.25
TTAGGTTTCGACACTGTGTTAGTGCTA | 2.57

Block 3
Target: Sal-like protein 4, full length isoform B (SALL4, Homo sapiens, UniProt Q9UJQ4-2, residues 1-616)
Method: universal PBM
Molecule type: double-stranded DNA, one strand shown
Medium: in vitro
Tested at: not given
Notes: 8-mer, flanks averaged, mean of replicates
Reading: higher = stronger binding
Target sequence (chain): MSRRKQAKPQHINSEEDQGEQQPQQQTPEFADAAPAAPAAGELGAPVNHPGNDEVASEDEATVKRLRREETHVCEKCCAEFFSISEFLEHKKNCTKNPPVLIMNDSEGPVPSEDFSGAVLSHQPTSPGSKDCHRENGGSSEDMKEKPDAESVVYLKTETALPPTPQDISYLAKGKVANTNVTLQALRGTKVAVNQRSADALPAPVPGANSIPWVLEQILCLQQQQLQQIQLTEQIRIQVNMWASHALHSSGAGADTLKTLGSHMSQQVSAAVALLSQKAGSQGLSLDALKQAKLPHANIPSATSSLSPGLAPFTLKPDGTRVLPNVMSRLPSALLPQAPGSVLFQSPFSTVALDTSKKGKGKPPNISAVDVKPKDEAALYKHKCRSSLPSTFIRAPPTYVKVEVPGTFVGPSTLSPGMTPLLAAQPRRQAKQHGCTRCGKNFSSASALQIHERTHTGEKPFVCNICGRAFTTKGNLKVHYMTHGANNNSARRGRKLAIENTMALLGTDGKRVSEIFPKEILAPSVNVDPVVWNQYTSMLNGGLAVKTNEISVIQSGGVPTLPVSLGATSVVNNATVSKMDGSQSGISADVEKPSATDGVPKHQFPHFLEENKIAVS
Strand | E-score
AACTCTGC | -0.233
ATACAGAC | 0.215
CCTCTGTC | -0.201
GGCACGTA | -0.0807
CCCGACCC | -0.387
GAACAAGA | 0.0623
CCGTGGTA | -0.0925
GGCGCCTA | -0.108
CTGGCGCC | -0.347
ATCTGGGC | -0.253
ATTCTGGG | -0.0233
ACGCGACT | -0.181
ACCCCGGT | -0.304
CAGATCCG | -0.167
ATAAAGGA | 0.232
AAAACTTC | 0.196
ACGGTGCC | -0.253
CTCATAGA | 0.0936
AGGTGCCC | -0.221
CCACGGGA | -0.232
CACACCAC | -0.026
CGCCCCTA | -0.257
GCCCTAAC | -0.00389
ATCGACCC | -0.149
GTCCCGGA | -0.299

Block 4
Target: RNA binding protein fox-1 homolog 2, RRM domain, GST-SBP tag (RBFOX2, Homo sapiens, UniProt O43251-10, residues 100-194)
Method: RNA Bind-n-Seq
Molecule type: RNA
Medium: in vitro
Tested at: 365 nM
Notes: natural RNA segment, single round, ends assumed
Reference: no-protein control
Reading: higher = stronger binding
All sequences stand within: GGGAGUUCUACAGUCCGACGAUC … UGGAAUUCUCGGGUGCCAA
Residues (chain): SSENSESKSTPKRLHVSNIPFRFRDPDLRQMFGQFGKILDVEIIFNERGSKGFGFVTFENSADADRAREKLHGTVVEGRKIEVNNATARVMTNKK
Strand | RBNS enrichment (R)
GCAAUGGAUAUAAAUGUACUGUGAGUCUCUCGGUUCAGUAUUAGGUUCACUUUAAUUUAUUUAUGCUGUAAGUUAUUUUUGCUUCCUUCUCCUGGACCCACUUCCAGUCC | 0.335
AUCCUGAGGAAGUCCGAGCUGUCCUGGAAAAGCUUUGCACUCCACCUAGACACGUGCCUCAGCUCUAGGGACCAGCAGGAAGGCUCCCCAAGCUUGGUACUUUCCCACAC | 0.322
UGCCUUCUCUCAGCUCCCAGGCCAACAGUAGCCAAACCCCUAGAGACAGUGAUGCCUGCCCGCACCCUGGCCUGGUCCCUGGUCCUUCACUGGCGCCUUCUCGGAGCUGG | 0.485
GAAGCCUGUUGUACAGAUUUAGAGUCUUACAAUAUGAGGGAAGUUGGUUCUGGGAAGGUAAGAUGUAGCCAGUUUUCAUCUGGGCACCUCUGAAAGAGAAGGAGUGCAGG | 1.07
AUCGGAGCUCUUUCCUUUGAUAGAGAGAACAGCCCCAAUGAUCCUGGCUUUUUCACUGAACGUAUCAGAAUACAUGGAUGAAUUGGGGUAAAUAAGGUUUUAAUUCAGAU | 0.564
UUUUAAUCGGUGGCAUUAUGAGCAUCAGAACAGAUACUGAGAUAAAGGAAGAACCAAAAGCCAAGUUAAAGCUGAGAGCACAAGUGCUGCAUGGAAAGGCAAUAUCUCUG | 5.17
GUGCUGUGGGGAAACAGAAGCGUUACAGACCGGGCCAGGCUGCCUGGCUGCUGCUCCCUCUGGGCUCAUAGCUGGCCCACUUGACGGUCCCUGGUGGCUUCUGGAGGGAA | 0.46
GUGUAUAUAUAUAUAUAUAUAUAUAUAUAGCCACACAUGAUCAUACUUAUAUAUGAUGUUUCCAUAUAUGUGCUGUGUGUUUAAGUUUUGUAUCAUCCAGACUGAUACCA | 0.573
UGCUCUCUGUUUCCAGUGAUUAAACACCCAUAACCAACGUUGCUGUCUGCUGCCACUGACAGUCCAGUGAAUCCUUUUCUGUCUGUUCCUAACAACUUUUAUUUGACACA | 0.541
UAUUUAUUUGGUUAUUCAAAAUACAUAUCAGAGUUUGGGUUUCCAGUCUUAGUUGCAUUUGUUGUUUAUUUGUUGGGCUCACCCAACUCUUGACACCAUAGCAGAGCAUC | 0.455
CUUGCUUUUGCUUCUUUUCUUUUGAGACAUGUACCCUUUCUGAUUGGAUAAUUGAUGUUUAGCCAAGGCUGGCCUCAAAAUACUAGUAAUCUUUCUGUAAGCCUCUCAAG | 0.447
AAAAAAACAAGGAAAAAAAAUAAUGCUUCAACGCUUUUAAAACAGCAAGAUACUAGUUCUUUGAUACUUUGAGAGGCGCUUUGAUUACCCCGAUUGAAGUCUCUGAAACU | 0.474

Block 5
Target: ABI1, truncated, D143A, DHFR fusion (Arabidopsis thaliana)
Method: DHFR PCA, deep sequencing
Medium: yeast
Notes: methotrexate growth selection, single substitutions
Together with: (+)-ABA 0.032 µM
Reference: wild-type fitted maximum
Reading: higher = stronger binding
Parent: PYL1, truncated, DHFR fusion (Arabidopsis thaliana); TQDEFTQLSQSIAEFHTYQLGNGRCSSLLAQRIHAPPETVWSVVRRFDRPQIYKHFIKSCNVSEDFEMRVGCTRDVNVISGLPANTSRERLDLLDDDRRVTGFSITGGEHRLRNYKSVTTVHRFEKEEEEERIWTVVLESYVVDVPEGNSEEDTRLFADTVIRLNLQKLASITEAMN
Substitution | relative binding score
V44K | -5.18%
L8E | -6.97%
T135D | -5.17%
T1A | 25.1%
T120S | 64%
A158D | 4.31%
D159A | -0.721%
N114C | -4.98%
E131V | 28.4%
L156V | 8.28%
S117F | -6.58%
R49S | 12.4%
R24L | 4.68%
F103N | 3.32%
V143W | -5.98%
R74T | 3.22%
R32M | 18.7%
I52G | 0.891%
Y141R | -2.89%

Excerpt of the above (block 5):
Substitution | relative binding score
T1A | 25.1%
T120S | 64%
A158D | 4.31%
D159A | -0.721%
N114C | -4.98%
E131V | 28.4%
L156V | 8.28%
S117F | -6.58%
R49S | 12.4%
R24L | 4.68%
F103N | 3.32%
V143W | -5.98%
R74T | 3.22%
R32M | 18.7%
